Assay results from different studies.
Parts stem from different laboratories: compare values within a part only.

Series 1
Target: Fragile X messenger ribonucleoprotein 1, C-terminal low-complexity region (Fmr1, Mus musculus, UniProt P35922)
Method: RNA Bind-n-Seq
Form: RNA
Medium: in vitro
Tested at: 200 nM
Setting: whole 134-nt RNA, ends assumed
Together with: 150 mM KCl
Baseline: input library
Direction: higher = stronger binding
Endpoint: log2 enrichment
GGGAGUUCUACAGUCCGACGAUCAAGUCCUGUGCUACACAUCGUAUGUACCGAAUCGGGAGGGUUUGGGUUUUUUUGGGAAAGUAUUAUGUUACGCCGUUCGGAUCUGCACUUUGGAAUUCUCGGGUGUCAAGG: 0.604
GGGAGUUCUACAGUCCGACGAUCUUUCAGGGCGCCCUGCGUCCGGCAGAGGAGGCGAGCAUCCCGCUCAGGUGAUGAGGAACCCCUCGCGCACCCAGCGCAGAAGGCUGCUGCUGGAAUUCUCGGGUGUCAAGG: -0.903
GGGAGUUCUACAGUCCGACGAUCCAAGUCCUGUGCUACACAUCGUAUGUACCGAAUCGGGAAAAAGGGAAAGGGUGGGAAAGUAUUAUGUUACGCCGUUCGGAUCUGCACUUCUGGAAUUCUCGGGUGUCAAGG: 0.8
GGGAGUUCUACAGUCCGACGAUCCAAGUCCUGUGCUACACAUCGUAUGUACCGAAUCGGUUUGGUUUUUUUGGAAAGGAAAGUAUUAUGUUACGCCGUUCGGAUCUGCACUUCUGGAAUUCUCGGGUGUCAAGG: -0.6
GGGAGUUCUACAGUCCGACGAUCUCAAGUCCUGUGCUACACAUCGUAUGUACCGAAUCGGUUUGGUUUUUGGAAAGGAAAGUAUUAUGUUACGCCGUUCGGAUCUGCACUUCCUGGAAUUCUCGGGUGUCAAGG: -0.442
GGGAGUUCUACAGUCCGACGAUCUCAAGUCCUGUGCUACACAUCGUAUGUACCGAAUCGGAAAGGUUUUUUUGGAGGAAAGUAUUAUGUUACGCCGUUCGGAUCUGCACUUCCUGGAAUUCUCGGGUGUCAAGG: -0.835
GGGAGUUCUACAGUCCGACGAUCAGUCCUGUGCUACACAUCGUAUGUACCGAAUCGGAAAAAAAGGAAAAAAAGGUUUGGAAAGUAUUAUGUUACGCCGUUCGGAUCUGCACUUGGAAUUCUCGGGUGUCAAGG: -1.56
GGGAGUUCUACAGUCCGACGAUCCAAGUCCUGUGCUACACAUCGUAUGUACCGAAUCGGGGAAGGGGAAGGGGAAGGGAAAGUAUUAUGUUACGCCGUUCGGAUCUGCACUUCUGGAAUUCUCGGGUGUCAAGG: 0.758
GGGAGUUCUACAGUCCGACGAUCUCAAGUCCUGUGCUACACAUCGUAUGUACCGAAUCGGGGUUGGGUUGGGUUGGGGAAAGUAUUAUGUUACGCCGUUCGGAUCUGCACUUCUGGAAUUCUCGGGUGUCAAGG: 1.41
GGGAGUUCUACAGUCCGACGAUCCCUGUGCUACACAUCGUAUGUACCGAAUCGGUUUUUUUGGUUUUUUUGGUUUUUUUGGGGAAAGUAUUAUGUUACGCCGUUCGGAUCUGCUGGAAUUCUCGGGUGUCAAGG: -0.809

Series 2
Target: RNA binding protein fox-1 homolog 2, RRM domain, GST-SBP tag (RBFOX2, Homo sapiens, UniProt O43251-10, residues 100-194)
Method: RNA Bind-n-Seq
Form: RNA
Medium: in vitro
Tested at: 365 nM
Setting: natural RNA segment, single round, ends assumed
Baseline: no-protein control
Direction: higher = stronger binding
Endpoint: RBNS enrichment (R)
Construct (chain): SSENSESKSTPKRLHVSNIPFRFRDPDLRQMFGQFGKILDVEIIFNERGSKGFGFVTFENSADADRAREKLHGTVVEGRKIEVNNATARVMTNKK
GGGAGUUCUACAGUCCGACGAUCUGAAGGGGUUUUCUUGAUAAUUUUCCUUUAAUAUGAAAUUUUUUUUCAUGCUUUAUCAAUAGCCCAGGAUAUAUUUUAUUUUUAGAAUUUUGUGAAACAGACUUGUAUAUUGGAAUUCUCGGGUGCCAA: 0.942
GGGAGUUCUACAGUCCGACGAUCUUUAGGAAAUUGCCAGACUGUUUUCCAAAGAAGCUGCACCAUUUUACAUUUGCACCAGCAAUGUAGGAGGGUUCUGAUAUCUCCACGUCCUCACCAACACUUGUGAUUAUUGGAAUUCUCGGGUGCCAA: 0.187
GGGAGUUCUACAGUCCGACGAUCCCCAAAUAACUCAUGAGUUCCAAGUUGAAACAUGGUUGUGCAAGUUGGACAUUACAAUGUAAAACACAUUUUCUUCAAACACGUUUUCCCUUUUGUUUCAAAAAAUGUAAUGGAAUUCUCGGGUGCCAA: 0.462
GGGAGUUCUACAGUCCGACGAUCAGGACCAAACAGAUUCAAGGAGCAUCAUUUAAGCUAAGAAGAGACCUAAGUGAUGAAACUAGCUGUAAGAAUGUAACAGGGGUUGUGUUUGAAAUAUUUAUAUUCCCAUCUGGAAUUCUCGGGUGCCAA: 1.42
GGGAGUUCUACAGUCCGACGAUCGCAGAGGCUGGAGGCAGGGCCUUGCCCAGAGAUGCCUCCACCGCUGCCUAAGUGGCUGCUGACUGAUGUUGAGGGAACAGACAGGAGAAAUGCAUCCAUUCCUCAGGGACUGGAAUUCUCGGGUGCCAA: 0.886
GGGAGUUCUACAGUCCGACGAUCUUAUAGCUUCUUCUUAAAAAAAAGUGUUGAAGAAAUUUUUUGGUUAUUCAUACAAAAAAAUGAGUUGAUGAUGGAAAAGCAAGUCAUAAUCAUCUAAUUGUUUUUGUCUAUGGAAUUCUCGGGUGCCAA: 0.781
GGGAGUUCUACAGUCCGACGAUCGACUGCCUGCCCACCCUGAGGUCCCCGACUGGCCAGGGCCACUCAGCUGCCCCUGUCCCCACCUCUGGAGAAUCCACCCCCACCAGAUUCCUCCGCGGGAGGUGGCCCUCUGGAAUUCUCGGGUGCCAA: 0.312
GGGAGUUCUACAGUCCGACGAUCCAUGUUUAGUCAAAUUGGAAUCCACUCACCUGUUCCCUUUGUUUUCCCUAUCCCUUCUCCUGAGCACCCUUUGAUUUCUGAGGACAGUACUACCCAUUCAUCUAUUGUAGUGGAAUUCUCGGGUGCCAA: 1.4
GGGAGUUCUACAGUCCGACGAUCGCUGCUGGUGAGGUUUGGAAGCAUCAGGCUCACGGGUGUUCAUGUGUGUUCGUGCGUGUGUGUGCGUACGUGUAUAUAACUGAAGUGUCUGUACGGAAUGCCCUUUGCUAUGGAAUUCUCGGGUGCCAA: 0.675
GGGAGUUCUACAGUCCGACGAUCGUUUACAGCGAUUCCGUGGACCGGGGGUAUUUUGAUCAGGGGUGGUUUUGGUCUGGGAGGGUUUUGUUUGUUGGGUUUUUUUAAAAAAAAAUGACAAUGAAGAGACACUUUGGAAUUCUCGGGUGCCAA: 0.991
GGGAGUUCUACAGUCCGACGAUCCUUUUGUGACAGGAGCAUACCCAGAAUAAAACACGCCUACCUGUUAACUCGUUCAAAUAAUGUGGUCAUAACUUACACAUUUAAGCGUAUAUUGGAAUUGUUAACUCAAAUGGAAUUCUCGGGUGCCAA: 0.492
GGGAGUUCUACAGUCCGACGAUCGGGACCCAGCUCCAUGCACGUCAACCCAGUCCCGCCCAGACUAGUGGACAGACCUGGUGUCACCAGUUUUUCCUAGCAUCAGUCCGAACCAUGCGCCCGCCCUGCCCCAAUGGAAUUCUCGGGUGCCAA: 6.66

Series 3
Target: Histone acetyltransferase KAT6A, winged helix 2, GST fusion (KAT6A, Homo sapiens, UniProt Q92794, residues 85-181)
Method: protein binding microarray
Form: double-stranded DNA, one strand shown
Medium: in vitro
Tested at: not given
Setting: 8-mer, flanks averaged, mean of 2 arrays, mostly near background
Baseline: not given
Direction: higher = stronger binding
Endpoint: E-score
Construct (chain): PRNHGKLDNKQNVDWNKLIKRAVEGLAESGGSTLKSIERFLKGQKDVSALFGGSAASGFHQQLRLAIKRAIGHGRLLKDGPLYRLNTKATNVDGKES
GATGAAGC: -0.102
AACTCTCA: -0.0848
GTCAACAC: 0.123
ATTTAGAA: 0.0512
TGGAATAA: 0.079
ACATCTAG: -0.098
CGGGTGAC: 0.0826
ATCGCGAG: 0.069
CCAAAGTC: -0.0134
AGCCGTAC: 0.00449
CACATAGG: -0.176
GAATTCCA: 0.0682
ACTTACAT: -0.105
GAGGCAAA: 0.0946
GGGCTTAA: 0.0468
AGGGAAAG: 0.0145
GGTGCTCA: 0.0811
AGAGGCTC: -0.0293
AACGACCC: 0.0474
CACGCCCA: 0.0945
CCTTGCTA: 0.134
TCTTAACA: 0.0176
CAGTATCA: -0.189

Series 4
Target: Phosphate system positive regulatory protein PHO4, full length, GST-tagged (PHO4, Saccharomyces cerevisiae, UniProt P07270, residues 1-312)
Method: competition protein-binding microarray
Form: double-stranded DNA, one strand shown
Medium: in vitro
Tested at: 2 µM
Setting: whole 60-bp probe, lowest competitor level
Together with: Cbf1 competitor, 0.05 µM
Direction: higher = stronger binding
Endpoint: fluorescence intensity
Target sequence (chain): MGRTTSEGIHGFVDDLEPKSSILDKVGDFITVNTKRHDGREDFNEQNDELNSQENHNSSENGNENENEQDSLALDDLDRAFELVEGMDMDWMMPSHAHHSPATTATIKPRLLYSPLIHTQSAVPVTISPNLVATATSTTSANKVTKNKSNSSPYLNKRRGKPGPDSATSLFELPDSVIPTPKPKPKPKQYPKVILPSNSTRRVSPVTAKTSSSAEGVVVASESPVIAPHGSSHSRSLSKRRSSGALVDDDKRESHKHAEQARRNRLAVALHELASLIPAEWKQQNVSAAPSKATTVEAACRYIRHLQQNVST
GTCTTGTCTCATTGTGAAGTGGGTGTCCCCACTTCAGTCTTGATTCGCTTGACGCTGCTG: 4610 a.u.
CTTCTGTAAATTTGTCACCCAACTTGACGCGCCCCGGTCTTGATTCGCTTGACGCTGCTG: 3110 a.u.
AACGGCGTCCGCAGAACCGTGACGGAATCTGCGGTTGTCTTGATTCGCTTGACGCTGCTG: 5120 a.u.
CGCCATTGTATGAATCTCGTGCCAGTCCCTTTTTAAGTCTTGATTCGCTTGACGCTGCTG: 9280 a.u.
ACAAATACGAGCTTGCGCGTGTAGGTTAATCAGTTCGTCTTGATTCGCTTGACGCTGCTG: 7680 a.u.
CGTCCTAGTGATTGGATCGTGGGTGCCATGAGGAAGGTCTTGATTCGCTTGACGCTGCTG: 11200 a.u.
TCTGTTATTGCTGATCGCGTGGCCGTTAAATTGGTTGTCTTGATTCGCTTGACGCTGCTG: 8750 a.u.
CGGGGTTAAGTTTGTGGGGTGGGTGGCTTGCAGCAGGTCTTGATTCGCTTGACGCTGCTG: 5450 a.u.
CGTCCTAGCGATTGAGTGGTGGGTGCCATGAGGAAGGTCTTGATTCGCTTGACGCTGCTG: 6830 a.u.
CGTAAACCTGACACCCTCGTGGGAGGAGCGCGCCCCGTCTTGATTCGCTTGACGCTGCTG: 12700 a.u.
TAAGGTATTACGAGACACATGGAATACTAAGAATATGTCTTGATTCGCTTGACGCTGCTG: 7730 a.u.
CATACCCAACCTTGTGCAGTGGGTGAAGATATTTGTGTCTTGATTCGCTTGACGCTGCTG: 7060 a.u.
CCAGTGACAAGTCGGCACGTGAAGAAGCTAGAAGACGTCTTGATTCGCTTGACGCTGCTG: 18200 a.u.
TGTCCGACAGCCCATCACGCAGAGCAAGTTTAAGACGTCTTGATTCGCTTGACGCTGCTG: 6010 a.u.
TGTGGATCATATCACCACGTGTTTTTTCAATCCTTTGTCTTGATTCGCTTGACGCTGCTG: 16600 a.u.
ATTGTTCCACCCGACCACGTGCTTTTTCATAAGGGTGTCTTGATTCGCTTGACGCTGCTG: 20500 a.u.
GCAATTGAGCTTTAGCACGTGCAATTAGGATGAAAAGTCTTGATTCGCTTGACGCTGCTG: 19100 a.u.
CTTTCCCGATCTTGTCACTGCACTTTAGCACATTTGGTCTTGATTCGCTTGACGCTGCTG: 3920 a.u.
AAACAAACCCTTACCCACGTGGCCGTATGGCTATGTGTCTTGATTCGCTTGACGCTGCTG: 20800 a.u.
CCGATAGTAAGGTTCGACGTGGTGAACCATCAACAAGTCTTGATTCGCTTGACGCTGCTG: 4420 a.u.
GGTAGTAGAACCCGTCACGTCATTACTTGATGTTGCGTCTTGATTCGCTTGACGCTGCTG: 5240 a.u.
CGTCCTAGTGATTGTCACACTACTTCCATGAGGAAGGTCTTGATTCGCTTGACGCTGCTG: 4660 a.u.
GTCTTGTCTCATTGTCACTCTACTTTCCCCACTTCAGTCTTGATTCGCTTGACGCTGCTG: 4290 a.u.
CCGCTTTGGAATTTATTCGTGCCGAAAAGACTCAAGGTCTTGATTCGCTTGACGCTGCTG: 4150 a.u.
AAAACTTGGTTATCGCACGCTGAAAAGCGCGTTCTCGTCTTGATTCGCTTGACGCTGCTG: 6360 a.u.
